Measurements of several laboratories.
Compare with care: the assays were run in different laboratories. Several values in a cell are separate wells, animals, samples, runs or records. ± marks the error that the study gave.
PRKCE: Protein kinase C epsilon type (PRKCE, Homo sapiens, UniProt Q02156)
Chain of UniProt P10721 (whole entry, unmodified, looked up): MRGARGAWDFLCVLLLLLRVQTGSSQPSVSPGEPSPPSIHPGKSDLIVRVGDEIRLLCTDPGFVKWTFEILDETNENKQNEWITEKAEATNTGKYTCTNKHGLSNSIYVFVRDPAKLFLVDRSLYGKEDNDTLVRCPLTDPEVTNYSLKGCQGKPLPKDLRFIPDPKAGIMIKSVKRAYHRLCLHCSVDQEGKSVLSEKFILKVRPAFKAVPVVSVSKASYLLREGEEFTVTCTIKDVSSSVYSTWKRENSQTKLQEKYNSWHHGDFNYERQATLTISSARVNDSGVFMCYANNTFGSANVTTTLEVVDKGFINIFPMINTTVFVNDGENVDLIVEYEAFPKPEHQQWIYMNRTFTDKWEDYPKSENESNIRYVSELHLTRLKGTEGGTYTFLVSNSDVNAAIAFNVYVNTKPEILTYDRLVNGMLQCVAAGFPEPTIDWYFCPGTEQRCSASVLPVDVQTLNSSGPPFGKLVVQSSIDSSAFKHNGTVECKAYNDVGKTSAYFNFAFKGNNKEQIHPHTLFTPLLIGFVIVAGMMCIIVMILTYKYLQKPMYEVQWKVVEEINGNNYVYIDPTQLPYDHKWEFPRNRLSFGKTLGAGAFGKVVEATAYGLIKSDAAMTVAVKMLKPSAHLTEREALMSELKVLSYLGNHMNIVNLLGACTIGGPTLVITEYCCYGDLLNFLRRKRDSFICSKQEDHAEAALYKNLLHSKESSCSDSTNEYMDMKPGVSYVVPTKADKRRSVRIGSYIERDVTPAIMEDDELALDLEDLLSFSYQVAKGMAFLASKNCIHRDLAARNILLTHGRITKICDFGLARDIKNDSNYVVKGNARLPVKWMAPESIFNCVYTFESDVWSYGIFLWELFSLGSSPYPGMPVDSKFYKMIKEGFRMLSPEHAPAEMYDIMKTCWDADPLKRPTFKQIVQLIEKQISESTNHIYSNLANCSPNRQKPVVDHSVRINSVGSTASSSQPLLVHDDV
Chain of UniProt Q02156 (whole entry, looked up): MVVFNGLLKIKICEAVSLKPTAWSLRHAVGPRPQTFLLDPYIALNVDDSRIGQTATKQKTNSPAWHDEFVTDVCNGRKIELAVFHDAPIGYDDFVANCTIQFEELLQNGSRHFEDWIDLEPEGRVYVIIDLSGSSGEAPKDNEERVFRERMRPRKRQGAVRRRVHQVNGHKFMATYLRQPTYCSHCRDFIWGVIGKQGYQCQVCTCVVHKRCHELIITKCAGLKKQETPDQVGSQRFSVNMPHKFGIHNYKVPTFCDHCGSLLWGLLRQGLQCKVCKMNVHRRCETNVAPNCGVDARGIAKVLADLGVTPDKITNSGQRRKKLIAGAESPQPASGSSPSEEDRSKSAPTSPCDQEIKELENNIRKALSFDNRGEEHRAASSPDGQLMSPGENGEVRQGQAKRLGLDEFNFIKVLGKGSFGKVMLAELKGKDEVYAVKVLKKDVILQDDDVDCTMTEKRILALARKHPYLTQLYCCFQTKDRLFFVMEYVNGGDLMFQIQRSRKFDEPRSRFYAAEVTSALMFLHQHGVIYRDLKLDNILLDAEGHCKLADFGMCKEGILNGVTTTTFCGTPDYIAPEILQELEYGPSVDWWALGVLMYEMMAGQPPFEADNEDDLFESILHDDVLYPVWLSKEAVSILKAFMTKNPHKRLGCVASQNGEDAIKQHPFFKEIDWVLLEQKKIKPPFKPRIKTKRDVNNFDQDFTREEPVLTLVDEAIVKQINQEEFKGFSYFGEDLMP
Chain of UniProt P51575 (whole entry, unmodified, looked up): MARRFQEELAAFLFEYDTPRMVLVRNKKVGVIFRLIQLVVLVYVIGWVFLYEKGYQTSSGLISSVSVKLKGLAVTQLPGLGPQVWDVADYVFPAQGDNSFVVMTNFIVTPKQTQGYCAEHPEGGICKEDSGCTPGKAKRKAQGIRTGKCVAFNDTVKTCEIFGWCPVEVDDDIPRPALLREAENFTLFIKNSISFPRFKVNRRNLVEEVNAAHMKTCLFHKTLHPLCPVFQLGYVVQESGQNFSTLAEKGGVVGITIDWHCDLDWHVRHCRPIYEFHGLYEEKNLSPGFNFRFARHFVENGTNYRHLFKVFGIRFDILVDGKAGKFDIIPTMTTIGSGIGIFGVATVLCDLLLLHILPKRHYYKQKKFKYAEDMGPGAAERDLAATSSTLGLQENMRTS
Chain of UniProt P07333 (whole entry, looked up): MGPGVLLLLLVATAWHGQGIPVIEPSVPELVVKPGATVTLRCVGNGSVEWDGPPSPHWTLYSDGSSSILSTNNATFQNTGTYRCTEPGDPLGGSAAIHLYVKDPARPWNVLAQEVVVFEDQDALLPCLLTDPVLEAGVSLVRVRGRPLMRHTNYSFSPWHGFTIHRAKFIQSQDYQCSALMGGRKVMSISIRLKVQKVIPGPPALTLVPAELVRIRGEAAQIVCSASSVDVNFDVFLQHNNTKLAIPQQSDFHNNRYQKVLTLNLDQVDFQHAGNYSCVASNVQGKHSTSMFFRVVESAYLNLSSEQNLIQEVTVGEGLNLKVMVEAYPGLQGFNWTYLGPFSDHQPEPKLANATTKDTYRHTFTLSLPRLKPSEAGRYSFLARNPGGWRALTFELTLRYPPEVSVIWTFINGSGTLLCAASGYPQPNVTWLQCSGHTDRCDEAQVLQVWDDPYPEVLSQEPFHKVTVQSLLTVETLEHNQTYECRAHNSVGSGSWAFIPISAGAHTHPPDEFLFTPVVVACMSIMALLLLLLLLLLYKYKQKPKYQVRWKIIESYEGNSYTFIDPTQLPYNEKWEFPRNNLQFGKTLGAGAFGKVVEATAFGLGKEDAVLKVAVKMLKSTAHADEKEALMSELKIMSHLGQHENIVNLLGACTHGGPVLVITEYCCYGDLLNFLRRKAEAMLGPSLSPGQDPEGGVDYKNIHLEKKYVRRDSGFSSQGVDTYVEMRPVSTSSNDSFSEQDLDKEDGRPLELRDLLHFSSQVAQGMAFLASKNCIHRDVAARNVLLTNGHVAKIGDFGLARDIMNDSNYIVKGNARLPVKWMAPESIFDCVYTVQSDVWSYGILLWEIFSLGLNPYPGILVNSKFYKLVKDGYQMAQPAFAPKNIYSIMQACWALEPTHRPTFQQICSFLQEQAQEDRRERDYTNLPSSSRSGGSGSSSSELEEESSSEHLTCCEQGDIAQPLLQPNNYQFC
Chain of UniProt P43250 (whole entry, looked up): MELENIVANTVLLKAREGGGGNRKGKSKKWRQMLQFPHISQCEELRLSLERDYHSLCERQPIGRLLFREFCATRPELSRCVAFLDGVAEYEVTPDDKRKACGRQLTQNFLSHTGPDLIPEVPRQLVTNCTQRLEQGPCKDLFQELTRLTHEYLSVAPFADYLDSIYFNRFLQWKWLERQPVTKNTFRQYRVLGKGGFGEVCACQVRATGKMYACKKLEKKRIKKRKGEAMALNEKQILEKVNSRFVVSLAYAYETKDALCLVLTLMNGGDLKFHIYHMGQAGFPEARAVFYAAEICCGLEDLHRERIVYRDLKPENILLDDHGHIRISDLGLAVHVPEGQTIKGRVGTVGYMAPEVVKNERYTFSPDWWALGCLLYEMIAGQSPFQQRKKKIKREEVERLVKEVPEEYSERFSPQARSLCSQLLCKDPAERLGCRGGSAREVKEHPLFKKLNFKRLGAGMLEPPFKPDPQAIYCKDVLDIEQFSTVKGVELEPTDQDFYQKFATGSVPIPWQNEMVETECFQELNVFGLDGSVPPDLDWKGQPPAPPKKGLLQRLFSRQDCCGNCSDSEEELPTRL
Chain of UniProt P17948 (whole entry, looked up): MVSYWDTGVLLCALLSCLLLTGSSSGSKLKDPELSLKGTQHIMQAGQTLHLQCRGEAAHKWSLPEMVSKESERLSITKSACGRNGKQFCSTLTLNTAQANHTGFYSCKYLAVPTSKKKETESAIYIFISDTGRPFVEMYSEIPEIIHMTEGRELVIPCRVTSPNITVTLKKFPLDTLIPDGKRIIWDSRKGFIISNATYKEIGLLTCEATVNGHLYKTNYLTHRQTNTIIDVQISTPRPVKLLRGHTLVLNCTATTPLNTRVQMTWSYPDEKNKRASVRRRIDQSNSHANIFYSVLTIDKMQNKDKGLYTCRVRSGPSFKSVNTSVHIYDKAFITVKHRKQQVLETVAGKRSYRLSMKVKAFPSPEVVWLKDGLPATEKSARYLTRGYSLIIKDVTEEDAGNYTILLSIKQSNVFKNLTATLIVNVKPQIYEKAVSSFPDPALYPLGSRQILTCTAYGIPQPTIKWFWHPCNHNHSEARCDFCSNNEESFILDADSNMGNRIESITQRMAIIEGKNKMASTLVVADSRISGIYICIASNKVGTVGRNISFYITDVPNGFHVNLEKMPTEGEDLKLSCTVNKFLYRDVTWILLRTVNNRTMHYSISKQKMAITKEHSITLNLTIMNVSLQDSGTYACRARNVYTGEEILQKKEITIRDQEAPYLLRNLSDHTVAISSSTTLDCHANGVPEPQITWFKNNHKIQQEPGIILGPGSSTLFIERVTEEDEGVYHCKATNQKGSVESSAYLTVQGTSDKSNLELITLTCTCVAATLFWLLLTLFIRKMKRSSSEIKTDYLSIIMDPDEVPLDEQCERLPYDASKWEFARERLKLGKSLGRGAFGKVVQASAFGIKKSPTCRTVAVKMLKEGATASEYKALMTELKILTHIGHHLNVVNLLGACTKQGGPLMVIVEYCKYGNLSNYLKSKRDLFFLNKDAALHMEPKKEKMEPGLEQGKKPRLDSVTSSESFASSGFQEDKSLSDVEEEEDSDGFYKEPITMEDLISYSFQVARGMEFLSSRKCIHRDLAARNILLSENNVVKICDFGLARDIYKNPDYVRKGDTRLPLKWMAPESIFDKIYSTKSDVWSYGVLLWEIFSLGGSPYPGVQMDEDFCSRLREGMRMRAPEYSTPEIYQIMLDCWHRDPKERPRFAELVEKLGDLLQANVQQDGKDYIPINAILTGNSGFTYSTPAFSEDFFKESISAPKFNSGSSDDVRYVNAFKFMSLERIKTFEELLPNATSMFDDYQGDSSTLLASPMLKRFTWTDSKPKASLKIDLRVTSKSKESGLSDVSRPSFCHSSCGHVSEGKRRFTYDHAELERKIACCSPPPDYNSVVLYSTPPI

SMILES	tested on	assay	test system	setting	scale	quantity	result
CC(C)C[C@H](NC(=O)C[C@H](O)[C@H](CC(C)C)NC(=O)[C@H](Cc1c[nH]cn1)NC(=O)CNC(=O)[C@@H](NC(=O)[C@H](C)NC(=O)[C@H](Cc1c[nH]c2ccccc12)NC(=O)[C@H](CCC(N)=O)NC(=O)[C@@H](Cc1ccccc1)NC(=O)COCCOCCNC(=O)CCC(C(=O)O)N1CCN(CC(=O)O)CCN(CC(=O)O)CCN(CC(=O)O)CC1)C(C)C)C(N)=O (stereo partly shown) [lutetium-177 labelled]			BALB/c nu/nu mice, lung	intravenous, 750 pmol, 1 h, with: PA 300 µg		tissue uptake	0.5 ± 0.4 %ID/g
CNc1ncc2c(/C=C/C(=O)N3CCC(OC)CC3)nn(Cc3cccc(C(F)(F)F)c3)c2n1	CSF1R (Homo sapiens, UniProt P07333)	kinase activity, inhibitor		1 µM	baseline: untreated control	remaining activity	88%
Nc1nc2c(ncn2[C@@H]2O[C@H](COP(=O)(O)O)[C@@H](O)[C@H]2O)c(=O)[nH]1	GUK1 (Homo sapiens, UniProt Q16774)	ITC		concentration not given		ΔG of binding	-6.01 kcal/mol
COc1cc(F)ccc1-c1ncnc(Nc2cccc(C[S@](C)(=N)=O)c2)n1	PRKCE	kinase activity		10 µM, with: 10 µM ATP		remaining activity	100%
CC[C@@H]1[C@H](F)C(=O)N[C@@H]1COc1nccc2cc(C(N)=O)c(OC)cc12	STK38 (Homo sapiens, UniProt Q15208)	ATP-site probe binding, ActivX profiling	THP-1 cell lysate	0.2 mM, Lys1 site		inhibition	22.6%
O=C(O)c1ccc(Nc2ncc3c(n2)-c2ccc(Cl)cc2C(c2c(F)cccc2F)=NC3)cc1	human Tie2(h)	kinase activity		1 µM		remaining activity	51%
CNCC(=O)O	Sodium- and chloride-dependent glycine transporter 2 (Homo sapiens, UniProt Q9Y345)	glycine uptake, inhibitor, [3H]glycine uptake		2000 µM, log concentration 2, with: [3H]glycine	baseline: no inhibitor	remaining activity	103%
C=CC(=O)N1CCC(COCC(=O)N2CCN(c3nc(-c4cnc(N)nc4C(F)F)nc(N4CCOC[C@@H]4C)n3)CC2)CC1	KIT (Homo sapiens, UniProt P10721, L576P)	KINOMEscan		1 µM		remaining binding	82%
O=C(NC1CCC1)c1ccc2nc(-c3cccc(NS(=O)(=O)NCCN4CCCCC4)c3)cn2c1	KIT (Homo sapiens, UniProt P10721, V559D)	enzyme activity		10 µM		remaining activity	97%
COc1cc(-c2cncc3c2CN(C)Cc2cc(N4CCNCC4)ccc2-3)cc(OC)c1OC	PAK3 (Homo sapiens, UniProt O75914)	kinase activity		1 µM, human enzyme, with: ATP 10 µM	baseline: DMSO control	remaining activity	105%
COc1cc(Nc2ncc3c(n2)-c2ccc(Cl)cc2C(c2c(F)cccc2OC)=NC3)ccc1C(=O)O	MAP4K2	kinase activity		1 µM		remaining activity	57%
COc1ccc(F)cc1C(=O)NCc1ccc(-c2nn([C@@H](C)C(F)(F)F)c(N)c2C(N)=O)cc1	GRK6 (Homo sapiens, UniProt P43250)	kinase activity, inhibitor, HotSpot radiometric		1000 nM, with: ATP at Km		remaining activity	101 ± 1.8%
COc1cc(N2CCN(C)CC2)ccc1Nc1nc(N)n(C(=S)NCc2c(Cl)cccc2Cl)n1	SYK (Homo sapiens, UniProt P43405)	enzyme activity		10 µM	baseline: control	remaining activity	3.8%
Nc1ncnc2c1ncn2[C@@H]1O[C@H](COP(=O)(O)CP(=O)(O)OP(=O)(O)O)[C@@H](O)[C@H]1O	P2X purinoceptor 1 (P2RX1, Homo sapiens, UniProt P51575, R139P)	saturation binding	HEK293	103 nM		specific binding	1860 CCPM and 1890 CCPM
C=CC(=O)N1CCC[C@@H](n2nc(-c3ccc(Oc4ccccc4)cc3)c3c(N)ncnc32)C1	FLT1 (Homo sapiens, UniProt P17948)			0.1 µM		remaining activity	68.6%
Cc1cc(Nc2cc(N3CCN(C)CC3)nc(Sc3ccc(NC(=O)C4CC4)cc3)n2)[nH]n1	PRKCE	kinase activity, KinaseProfiler		0.03 µM, species human	baseline: control	remaining activity	98%

A few entries again:
SMILES	tested on	assay	test system	setting	scale	quantity	result
Nc1nc2c(ncn2[C@@H]2O[C@H](COP(=O)(O)O)[C@@H](O)[C@H]2O)c(=O)[nH]1	GUK1 (Homo sapiens, UniProt Q16774)	ITC		concentration not given		ΔG of binding	-6.01 kcal/mol
